Measurements from different studies.
Target: Serine/threonine-protein kinase MRCK gamma (CDC42BPG, Homo sapiens, UniProt Q6DT37)
Sequence of UniProt Q6DT37 (whole entry, looked up): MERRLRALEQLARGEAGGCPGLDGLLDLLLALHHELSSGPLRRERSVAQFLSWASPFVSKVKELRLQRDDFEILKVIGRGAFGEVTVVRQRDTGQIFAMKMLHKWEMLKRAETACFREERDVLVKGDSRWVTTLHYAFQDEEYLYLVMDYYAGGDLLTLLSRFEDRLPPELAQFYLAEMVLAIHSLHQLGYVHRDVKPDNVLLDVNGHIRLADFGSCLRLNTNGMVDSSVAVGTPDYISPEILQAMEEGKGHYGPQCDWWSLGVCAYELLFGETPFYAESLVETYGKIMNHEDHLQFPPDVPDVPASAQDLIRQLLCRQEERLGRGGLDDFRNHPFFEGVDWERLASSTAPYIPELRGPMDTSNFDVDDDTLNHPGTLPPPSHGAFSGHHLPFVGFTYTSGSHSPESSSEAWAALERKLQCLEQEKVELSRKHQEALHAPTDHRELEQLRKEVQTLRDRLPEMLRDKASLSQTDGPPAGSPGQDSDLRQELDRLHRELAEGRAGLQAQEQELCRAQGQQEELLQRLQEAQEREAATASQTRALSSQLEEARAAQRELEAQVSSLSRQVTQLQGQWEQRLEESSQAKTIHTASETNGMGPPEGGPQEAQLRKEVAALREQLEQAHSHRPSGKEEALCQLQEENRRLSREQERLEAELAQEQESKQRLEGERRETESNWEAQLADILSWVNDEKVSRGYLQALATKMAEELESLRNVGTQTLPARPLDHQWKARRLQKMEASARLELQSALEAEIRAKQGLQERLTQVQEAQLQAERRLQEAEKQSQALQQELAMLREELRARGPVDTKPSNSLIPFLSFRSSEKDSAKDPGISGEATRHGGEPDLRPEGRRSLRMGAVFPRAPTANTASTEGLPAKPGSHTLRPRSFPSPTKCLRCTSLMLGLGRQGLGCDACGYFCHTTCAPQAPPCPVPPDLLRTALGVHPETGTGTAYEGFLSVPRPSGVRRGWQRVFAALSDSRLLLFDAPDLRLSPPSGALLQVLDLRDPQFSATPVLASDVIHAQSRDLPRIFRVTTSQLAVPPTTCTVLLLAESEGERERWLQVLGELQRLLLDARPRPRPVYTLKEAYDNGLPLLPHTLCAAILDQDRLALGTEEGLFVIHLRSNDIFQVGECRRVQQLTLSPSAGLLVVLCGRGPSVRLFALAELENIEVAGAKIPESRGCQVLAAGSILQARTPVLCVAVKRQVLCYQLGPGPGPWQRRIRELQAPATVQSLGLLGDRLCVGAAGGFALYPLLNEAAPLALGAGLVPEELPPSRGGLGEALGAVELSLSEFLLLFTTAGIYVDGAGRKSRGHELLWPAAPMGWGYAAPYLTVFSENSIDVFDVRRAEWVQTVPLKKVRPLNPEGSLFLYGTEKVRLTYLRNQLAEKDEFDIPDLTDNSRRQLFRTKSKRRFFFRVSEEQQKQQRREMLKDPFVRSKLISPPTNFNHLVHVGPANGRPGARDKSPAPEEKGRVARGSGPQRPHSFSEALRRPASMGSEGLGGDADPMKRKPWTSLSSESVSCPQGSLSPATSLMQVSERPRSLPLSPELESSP

Structure (SMILES) | assay | setting | how to read | measurement | result
C=CC(=O)Nc1ccc(OC)c(Nc2cc(-c3[nH]c(SC)nc3-c3cccc(NC(=O)c4cccc(O)c4CN4Cc5ccccc5C4=O)c3)ccn2)c1 | – | 1 µM | reference: control | remaining activity | < 10%
CCN1CCN(Cc2ccc(C(=O)Nc3ccc(C)c(Oc4ccc5c(c4)CC(=O)N5)c3)cc2C(F)(F)F)CC1 | KINOMEscan | 1 µM | – | remaining binding | 100%
Cn1c2c(Cl)c(Cl)ccc2c2cc[nH]c(=O)c21 | thermal shift | 10 µM, 2 µM protein | higher = stronger binding | ΔTm | 0.8 °C
COc1cnc(Nc2cccc(S(N)(=O)=O)c2)nc1N1CCN(c2ccccc2)C(=O)C1 | KINOMEscan | 1 µM | – | remaining binding | 100%
Cn1c2c(c3ccccc31)C(C#N)C(C)(C)NC2=O (stereo not shown) | thermal shift | 10 µM, 2 µM protein | higher = stronger binding | ΔTm | -0.6 °C
O=C(NCCCN1CCOCC1)c1ccc(Nc2ncc(Cl)c(-c3ccc(Cl)s3)n2)cc1 | binding, KINOMEscan competition binding | 1 µM | reference: DMSO control | remaining binding | 87%
O=C(NC1CCC1)c1ccc2nc(-c3cccc(NS(=O)(=O)NCCN4CCCCC4)c3)cn2c1 | enzyme activity | 10 µM | – | remaining activity | 100%
Cn1c2c(Cl)c(Cl)ccc2c2cn[nH]c(=O)c21 | thermal shift | 10 µM, 2 µM protein | higher = stronger binding | ΔTm | -0.7 °C
C#Cc1cc(-c2cc(Nc3nc(N[C@@H](C)c4ccc(F)cn4)ncc3Cl)n[nH]2)ccc1C=O | enzyme activity, inhibitor | 0.2 µM | – | inhibition | 7.66%
O=C(c1ccc(Nc2nccc(-c3cc4ccccc4s3)n2)cc1)N1CCC(N2CCCC2)CC1 | binding, KINOMEscan competition binding | 1 µM | reference: DMSO control | remaining binding | 94%
O=C(Nc1c[nH]nc1C(=O)NC1CCNCC1)c1cc(F)cc(F)c1 | scanMAX | 1 µM | reference: untreated | remaining binding | 100%
CNC(=O)[C@@H]1CC[C@@H](n2c(-c3ccc4cnccc4c3)nc3ccc(C(=O)NCc4cccc(C(N)=O)c4)cc32)C1 | KINOMEscan | 1 µM | – | remaining binding | 100%
Cn1c2c(c3ccc(Cl)c(Cl)c31)C(C#N)C1(CCCC1)NC2=O (stereo not shown) | thermal shift | 10 µM, 2 µM protein | higher = stronger binding | ΔTm | -0.9 °C
C[C@@H](c1ccc(-n2cnc3c(N)ncnc32)cc1)N1CCc2nn(C)c(Cc3ccccc3)c2C1=O | KINOMEscan | 0.1 µM | – | remaining binding | 96%
O=C(c1ccc(Nc2ncc(Cl)c(-c3ccc(Cl)s3)n2)cc1)N1CCC(N2CCCC2)CC1 | binding, KINOMEscan competition binding | 1 µM | reference: DMSO control | remaining binding | 38%
CCC1(CC)NC(=O)c2c(c3ccc(Cl)c(Cl)c3n2C)C1C#N (stereo not shown) | thermal shift | 10 µM, 2 µM protein | higher = stronger binding | ΔTm | -1 °C

Excerpt of the above:
Structure (SMILES) | assay | setting | how to read | measurement | result
COc1cnc(Nc2cccc(S(N)(=O)=O)c2)nc1N1CCN(c2ccccc2)C(=O)C1 | KINOMEscan | 1 µM | – | remaining binding | 100%
O=C(c1ccc(Nc2nccc(-c3cc4ccccc4s3)n2)cc1)N1CCC(N2CCCC2)CC1 | binding, KINOMEscan competition binding | 1 µM | reference: DMSO control | remaining binding | 94%
